Assay results collected from several papers.
± marks the error that the study gave.

SMILES	tested on	test	system	setting	scale	endpoint	result
CCCN(CC(=O)N(CCC)CC(=O)N(CCC)CC(=O)N(CCC)CC(=O)N(CCC)CC(=O)N(CCC)CC(=O)N(CC(N)=O)Cc1cn(CCCNC(=O)CCCOc2cccc(-c3nc4ccc(-c5nc6ccc(N7CCN(C)CC7)cc6[nH]5)cc4[nH]3)c2)nn1)C(=O)CNCc1cn(CCCNC(=O)CCCOc2cccc(-c3nc4ccc(-c5nc6ccc(N7CCN(C)CC7)cc6[nH]5)cc4[nH]3)c2)nn1	MBNL1–r(CUG)109 complex	MBNL1 displacement	0.65 pmol r(CUG)109	unit not given, with: yeast tRNA 3.7 µM	relative to: monomer 2 IC50 per module	multivalent effect	< 1.8
CCCCC/C=C/C(=O)CCc1ccc(O)c(OC)c1	mouse mAb 1-F12	antibody binding, indirect competitive ELISA	–	with: coating antigen 3-OVA	–	IC50	> 4 µg/mL
[64Cu+2].c1cnc(CNCc2ccc(CN3CCCN4CCNCCCN(CC4)CC3)cc2)nc1	CXCR4	–	NOD/SCID mouse, U87 and U87-stb-CXCR4 xenografts, liver	iv, 60 min, ex vivo	–	tissue uptake	83.5 ± 6.21 %ID/g
CCCC[C@H](NC(=O)[C@]1(C)CCCC=CCCC[C@](C)(NC(=O)[C@H](C)NC(=O)[C@H](CC(C)C)NC(=O)[C@H](Cc2c[nH]cn2)NC(=O)[C@H](CCCNC(=N)N)NC(=O)[C@H](C)NC(=O)[C@@H](NC(=O)[C@H](CC(N)=O)NC(=O)[C@H](CCCNC(=N)N)NC(=O)[C@@H](NC(=O)[C@@H](NC(=O)[C@H](CC(=O)O)NC(=O)[C@H](CCC(=O)O)NC(C)=O)[C@@H](C)CC)[C@@H](C)CC)[C@@H](C)CC)C(=O)N[C@@H](C(C)C)C(=O)NCC(=O)N[C@@H](CC(=O)O)C(=O)N1)C(=O)N[C@@H](CC(=O)O)C(=O)N[C@@H](CCCNC(=N)N)C(=O)N[C@@H](CO)C(=O)N[C@H](C(N)=O)[C@@H](C)CC	Bcl-2 homologous antagonist/killer, part: residues 15–186 (BAK1, Homo sapiens, UniProt Q16611)	analytical ultracentrifugation	–	concentration not given	relative to: unstapled peptide	binding enhancement	~10 fold
CCCC[C@H](NC(=O)CNC(=O)CNC(=O)CN1CCN(CC(=O)O)CCN(CC(=O)O)CCN(CC(=O)O)CC1)C(=O)N[C@H]1CC(=O)NCCCC[C@@H](C(N)=O)NC(=O)[C@H](Cc2c[nH]c3ccccc23)NC(=O)[C@H](CCCNC(=N)N)NC(=O)[C@@H](Cc2ccccc2)NC(=O)[C@H](Cc2c[nH]cn2)NC1=O [lutetium-177 labelled]	–	–	C57 mouse, female, heart	intravenous, 0.037 MBq, 24 h	–	tissue uptake	0.17 ± 0.13 %ID/g
CC(=O)N[C@H]1[C@@H](O[C@H](C)[C@H](NC(=O)[C@@H](NC(=O)CNC(=O)[C@@H](N)Cc2c[nH]cn2)C(C)C)C(=O)N[C@@H](CO)C(=O)N[C@@H](C)C(=O)N2CCC[C@H]2C(=O)N[C@@H](CC(=O)O)C(=O)N[C@H](C(=O)N[C@@H](CCCNC(=N)N)C(=O)N2CCC[C@H]2C(=O)N[C@@H](C)C(=O)N2CCC[C@H]2C(=O)NCC(=O)N[C@@H](CO)C(N)=O)[C@@H](C)O)O[C@H](CO)[C@H](O)[C@@H]1O[C@@H]1O[C@H](CO)[C@H](O)[C@H](O)[C@H]1O	Galectin-3 (LGALS3, Homo sapiens, UniProt P17931)	binding, isothermal titration calorimetry	–	full-length protein	–	–ΔH	1.79 kcal/mol
COc1cc(CCC(C)=O)ccc1O	mAb 5-3H1	antibody binding, indirect competitive ELISA	–	with: coating antigen 5-OVA	–	IC50	> 4 µg/mL
COC(=O)c1ccc(CNC(=O)[C@@H]2C[C@@H](O)CN2C(C)=O)cc1	von Hippel-Lindau disease tumor suppressor, with Elongin B/C (VHL, Homo sapiens, UniProt P40337)	isothermal titration calorimetry	–	concentration not given, 25 °C	–	binding enthalpy (ΔH)	-4.35 ± 0.02 kcal/mol
CNc1ccccc1C(=O)O[C@H]1C[C@H](n2cnc3c(N)ncnc32)O[C@@H]1COP(=O)(O)OP(=O)(O)O	Unconventional myosin-Va (Gallus gallus, UniProt Q02440, D297C/G292C/I296C/S293C/V295G)	stopped-flow FRET	–	15 °C, with: MgCl2 2 mM	–	dissociation rate constant	4.5 ± 0.1 s⁻¹
[64Cu+2].c1ccc(CNCc2ccc(CN3CCCN4CCNCCCN(CC4)CC3)cc2)nc1	CXCR4	–	NOD/SCID mouse, U87 and U87-stb-CXCR4 xenografts, kidney	iv, 90 min, ex vivo, with: AMD3465 25 mg/kg sc before tracer	–	tissue uptake	14.7 ± 1.82 %ID/g
COc1cccc(Cc2c[nH]c3ncc(C(F)(F)F)cc23)c1	FGFR1 (Homo sapiens, UniProt P11362)	enzyme activity, inhibitor	–	0.1 µM	–	inhibition	53%
CC(/C=C/C(=O)NO)=C\[C@@H](C)C(=O)c1ccc(N(C)C)cc1	HDAC8 (Homo sapiens, UniProt Q9BY41)	ITC in four buffers	–	concentration not given, pH 7.5	–	protons released on binding	0.71 ± 0.04 protons per ligand
C[C@@H]1NC(=O)[C@H](CC(N)=O)NC(=O)c2cc3ccccc3cc2NC(=O)[C@H](Cc2ccccc2)NC(=O)[C@H](CCCNC(=N)N)NC(=O)[C@@H]2CCCN2C(=O)[C@H]2CCCN2C(=O)[C@H](Cc2ccccc2)NC1=O	Melanocortin receptor 4 (Mus musculus, UniProt P56450)	antagonist, cAMP β-galactosidase reporter	–	no activity up to, with: MTII	–	antagonist activity	> 100 µM
O=C1CC(c2ccoc2)c2ccc(NC(=O)c3ccccc3)cc2N1 (stereo not shown)	Aromatase (CYP19A1, Homo sapiens, UniProt P11511)	inhibitor, MFC to HFC fluorescence	–	concentration not given	–	activity at saturation	11%
N#Cc1cnc(Nc2nc3ccccc3o2)nc1-c1cccc(F)c1F	Grm5 (Rattus norvegicus, UniProt P31424)	calcium mobilization, negative allosteric modulator	–	with: glutamate EC80	relative to: maximal glutamate response	maximal response	2.5 ± 0.3%
Cn1ccc2c(N3CCN(CCCCOc4ccc5c(c4)NC(=O)CC5)CC3)cccc21	DRD2 (Homo sapiens, UniProt P14416, I184A)	competitive binding kinetics	–	with: [3H]N-methylspiperone	relative to: I184A mutant over wild type	on-rate fold increase	2.2 fold
N#CCCC1CCN(C(=S)c2ccc(-c3cc(Cl)ccc3Cl)o2)CC1	Atrial natriuretic peptide receptor 1 (Homo sapiens, UniProt P16066)	activator, ELISA	HEK293 cells expressing GC-A	concentration not given, with: ANP 100 pM	–	cGMP production	no effect
CC1=C(/C=C/C(C)=C/C=C/C(C)=C/C=O)C(C)(C)CCC1	CNGA1 (Bos taurus, UniProt Q00194)	ion current, inhibitor, patch clamp	–	–	–	time constant of inhibition	854 ± 105 s
CC(C)=CCCC(C)=CCc1cc(-c2coc3cc(OC4OC(C(=O)O)C(O)C(O)C4O)ccc3c2=O)ccc1O (stereo not shown)	–	glucuronidation, substrate	dog liver microsomes	–	–	substrate inhibition Ki	51.4 ± 13.8 µM

Repeated from above:
SMILES	tested on	test	system	setting	scale	endpoint	result
COc1cc(CCC(C)=O)ccc1O	mAb 5-3H1	antibody binding, indirect competitive ELISA	–	with: coating antigen 5-OVA	–	IC50	> 4 µg/mL
